Published values from different studies.
Protocols differ between the studies behind these lines.
Target: Phosphatidylinositol 4,5-bisphosphate 3-kinase catalytic subunit gamma isoform (PIK3CG, Homo sapiens, UniProt P48736)

| Compound | assay | test system | conditions | scale | quantity | result |
| --- | --- | --- | --- | --- | --- | --- |
| CCN1CCN(Cc2ccc(C(=O)Nc3ccc(C)c(NCc4cnc5[nH]ccc5c4OC)c3)cc2C(F)(F)F)CC1 | binding, competition with immobilised ligand | – | 1 µM | – | remaining binding | 100% |
| C=CC(=O)Nc1cccc(-c2cnc3[nH]cc(C(=O)NC(C)(C)C)c3n2)c1 | enzyme activity, inhibitor | – | 0.1 µM | – | inhibition | 14% |
| Cc1cnc2nc1Nc1cccc(c1)COC/C=C/COCc1cc(ccc1OCCN1CCOCC1)N2 | binding | – | 0.1 µM | – | remaining binding | 96% |
| CNC(=O)C1CCN(c2cc(C)c(F)cc2NC(=O)c2ccc(-c3cc(O)ccc3C)c(C)c2)CC1 | binding, competition with immobilised ligand | – | 1 µM | – | remaining binding | 93% |
| CN1CC[C@@H](COc2cnc(C#N)cc2-c2ccn3nc(NC(=O)C4CC4)cc3c2)C1 | enzyme activity, inhibitor | – | 1 µM | – | inhibition | -1% |
| CC(=O)c1cnc(N)nc1N1CC[C@H]1c1nn2ccc(Cl)c2c(=O)n1-c1ccccc1 | KiNativ | intact human PBMC | 0.001 µM, 1 h | – | target engagement | -22.7% |
| COc1ccc(NC(=O)Nc2ccc3c(c2)C(=O)N(C(C)CO)CC(C)C(CN(C)Cc2ccc4c(c2)OCO4)O3)cc1 (centres unmarked) | binding, competition with immobilised ligand | – | 10 µM | – | remaining binding | 100% |
| CC(C)=CC1OC(C)(C)C2C=C3C(=O)C(Cl)=CC(O)C3C3C(O)C4OC4C(=O)C132 (centres unmarked) | cell-free assay, competition with immobilised ligand | – | 10 µM | – | remaining binding | 87% |
| C=CC(=O)N1Cc2nc(-c3cc(-c4cc(Cl)cnc4Cl)c(F)cc3F)n(-c3ccncn3)c2C1 | cell-free assay, inhibitor | – | 1 µM | – | inhibition | -3.6% |
| C=C1CCCCCCCCCC(CO)C1=O (centres unmarked) | cell-free assay | – | 10 µM | – | remaining signal | 75% |
| COc1c(Cl)cccc1Nc1c(-c2ccncc2C#C[C@@]2(C)CCCN2C(=O)/C=C/CN(C)C)[nH]c2c1C(=O)NCC2 | cell-free assay, competition with immobilised ligand | – | 3 µM | – | remaining binding | 81% |
| COc1cc(Nc2nc(C)cc(-c3cnn4nc(OC)ccc34)n2)cc(C(F)(F)F)c1 | inhibitor | – | 1 µM | baseline: control | remaining activity | 93% |
| Nc1ncc2c(n1)-c1c([nH]c3ccc(C4=CCOCC4)cc13)CCC2 | binding, competition with immobilised ligand | – | 1 µM | – | remaining binding | 61% |
| CN1CCN(Cc2ccc(NC(=O)c3cccc(C#Cc4cnc(N)c5ncccc45)c3)cc2C(F)(F)F)CC1 | cell-free assay, competition with immobilised ligand | – | 0.5 µM | – | remaining binding | 100% |

Excerpt of the above:
| Compound | assay | test system | conditions | scale | quantity | result |
| --- | --- | --- | --- | --- | --- | --- |
| CCN1CCN(Cc2ccc(C(=O)Nc3ccc(C)c(NCc4cnc5[nH]ccc5c4OC)c3)cc2C(F)(F)F)CC1 | binding, competition with immobilised ligand | – | 1 µM | – | remaining binding | 100% |
